Assay results of several laboratories.
Lines come from different studies, so protocols differ.
HLA class I histocompatibility antigen, B alpha chain allele B*08:01: HLA class I histocompatibility antigen, B alpha chain, allele B*08:01 (Homo sapiens, UniProt P01889)
HLA class I histocompatibility antigen, B alpha chain: HLA class I histocompatibility antigen, B alpha chain (Homo sapiens, UniProt P01889)
HLA class I histocompatibility antigen, B alpha chain allele B*40:01: HLA class I histocompatibility antigen, B alpha chain, allele B*40:01 (Homo sapiens, UniProt P01889)
HLA class I histocompatibility antigen, B alpha chain allele B*27:05: HLA class I histocompatibility antigen, B alpha chain, allele B*27:05 (Homo sapiens, UniProt P01889)

SMILES	target	assay	conditions	IC50
CC[C@H](C)[C@H](NC(=O)[C@H](CCCNC(=N)N)NC(=O)CNC(=O)[C@@H](NC(=O)[C@@H]1CCCN1C(=O)[C@@H](N)CCSC)[C@@H](C)CC)C(=O)N[C@@H](C)C(=O)N[C@@H](CCC(=O)O)C(=O)N[C@@H](CS)C(=O)N[C@H](C(=O)N[C@@H](CC(C)C)C(=O)O)[C@@H](C)CC	HLA class I histocompatibility antigen, B alpha chain allele B*08:01	binding, competitor, radioligand competition	two days, room temperature, HLA-B*08:01	0.489 µM
CC[C@H](C)[C@H](NC(=O)[C@H](CCCCN)NC(=O)[C@H](Cc1ccccc1)NC(=O)[C@H](Cc1ccc(O)cc1)NC(=O)CNC(=O)[C@H](CC(=O)O)NC(=O)[C@@H](NC(=O)[C@H](CC(N)=O)NC(=O)[C@@H](N)CCCCN)[C@@H](C)CC)C(=O)N[C@@H](Cc1ccc(O)cc1)C(=O)O	HLA class I histocompatibility antigen, B alpha chain	peptide-MHC binding, radioligand competition binding	–	> 70 µM
CC[C@H](C)[C@H](NC(=O)[C@@H]1CCCN1C(=O)[C@H](Cc1c[nH]cn1)NC(=O)[C@H](CCCCN)NC(=O)[C@H](Cc1ccc(O)cc1)NC(=O)[C@@H](NC(=O)[C@@H](N)Cc1ccc(O)cc1)[C@@H](C)O)C(=O)N[C@@H](Cc1ccc(O)cc1)C(=O)N[C@@H](CC(C)C)C(=O)O	HLA class I histocompatibility antigen, B alpha chain allele B*40:01	binding	–	4.13 µM
CC[C@H](C)[C@H](NC(=O)[C@H](CCCNC(=N)N)NC(=O)[C@@H](N)Cc1ccc(O)cc1)C(=O)N[C@@H](Cc1ccc(O)cc1)C(=O)N[C@@H](CC(=O)O)C(=O)N[C@H](C(=O)N1CCC[C@H]1C(=O)N1CCC[C@H]1C(=O)N[C@@H](CCCCN)C(=O)O)[C@@H](C)CC	HLA class I histocompatibility antigen, B alpha chain allele B*27:05	peptide binding, fluorescence anisotropy	18 h, 4 °C	0.06 µM
CC[C@H](C)[C@H](NC(=O)[C@@H](NC(=O)[C@@H](NC(=O)[C@H](CC(N)=O)NC(=O)[C@@H](NC(=O)[C@H](C)NC(=O)[C@@H](N)CC(N)=O)[C@@H](C)O)C(C)C)C(C)C)C(=O)N[C@@H](CCCCN)C(=O)N[C@H](C(=O)O)C(C)C	HLA class I histocompatibility antigen, B alpha chain, allele B*18:01 (Homo sapiens, UniProt P01889)	peptide-MHC binding, radioligand competition binding	–	> 70 µM
CC[C@H](C)[C@H](NC(=O)[C@H](CCCNC(=N)N)NC(=O)[C@H](CC(C)C)NC(=O)[C@@H](NC(=O)[C@H](CCCNC(=N)N)NC(=O)[C@@H](N)CC(C)C)[C@@H](C)CC)C(=O)N[C@@H](CCCCN)C(=O)N[C@@H](CC(C)C)C(=O)N[C@@H](CCCNC(=N)N)C(=O)O	HLA class I histocompatibility antigen, B alpha chain allele B*27:05	peptide binding, fluorescence anisotropy	18 h, 4 °C	0.109 µM
CC(C)C[C@H](NC(=O)[C@@H](NC(=O)[C@@H](NC(=O)[C@H](CC(=O)O)NC(=O)[C@H](Cc1ccccc1)NC(=O)[C@H](CCC(N)=O)NC(=O)[C@@H](N)CCCCN)C(C)C)[C@@H](C)O)C(=O)N[C@@H](Cc1ccc(O)cc1)C(=O)N[C@@H](Cc1ccccc1)C(=O)O	HLA class I histocompatibility antigen, B alpha chain allele B*40:01	binding	–	4.74 µM
CC(C)[C@H](NC(=O)[C@H](C)NC(=O)[C@@H](N)Cc1ccccc1)C(=O)N[C@@H](CC(=O)O)C(=O)N[C@@H](C)C(=O)N[C@@H](C)C(=O)N[C@@H](CCCCN)C(=O)N[C@@H](C)C(=O)N[C@@H](Cc1ccc(O)cc1)C(=O)O	HLA class I histocompatibility antigen, B alpha chain	peptide-MHC binding, radioligand competition binding	–	> 70 µM
CSCC[C@H](NC(=O)[C@H](CCC(=O)O)NC(=O)[C@H](CCC(=O)O)NC(=O)[C@@H](N)CCCNC(=N)N)C(=O)N[C@@H](CCC(=O)O)C(=O)N[C@H](C(=O)N[C@@H](Cc1c[nH]cn1)C(=O)N[C@@H](CCC(=O)O)C(=O)N[C@@H](CC(C)C)C(=O)O)C(C)C	HLA class I histocompatibility antigen, B alpha chain allele B*08:01	binding, competitor, radioligand competition	two days, room temperature, HLA-B*08:01	1.08 µM
CC[C@H](C)[C@H](NC(=O)[C@H](CCC(N)=O)NC(=O)[C@@H]1CCCN1C(=O)[C@H](Cc1ccc(O)cc1)NC(=O)[C@@H]1CCCN1C(=O)[C@@H](N)CC(C)C)C(=O)N[C@@H](CC(C)C)C(=O)N[C@@H](CC(C)C)C(=O)N[C@@H](CC(C)C)C(=O)O	HLA class I histocompatibility antigen, B alpha chain allele B*08:01	binding, competitor	–	12.4 µM

For quick reference, copied from above:
SMILES	target	assay	conditions	IC50
CC(C)C[C@H](NC(=O)[C@@H](NC(=O)[C@@H](NC(=O)[C@H](CC(=O)O)NC(=O)[C@H](Cc1ccccc1)NC(=O)[C@H](CCC(N)=O)NC(=O)[C@@H](N)CCCCN)C(C)C)[C@@H](C)O)C(=O)N[C@@H](Cc1ccc(O)cc1)C(=O)N[C@@H](Cc1ccccc1)C(=O)O	HLA class I histocompatibility antigen, B alpha chain allele B*40:01	binding	–	4.74 µM
